Published values of several laboratories.
Numbers after ± are the reported error.
Target: Urease (Canavalia ensiformis, UniProt P07374)
Sequence of UniProt P07374 (whole entry, looked up): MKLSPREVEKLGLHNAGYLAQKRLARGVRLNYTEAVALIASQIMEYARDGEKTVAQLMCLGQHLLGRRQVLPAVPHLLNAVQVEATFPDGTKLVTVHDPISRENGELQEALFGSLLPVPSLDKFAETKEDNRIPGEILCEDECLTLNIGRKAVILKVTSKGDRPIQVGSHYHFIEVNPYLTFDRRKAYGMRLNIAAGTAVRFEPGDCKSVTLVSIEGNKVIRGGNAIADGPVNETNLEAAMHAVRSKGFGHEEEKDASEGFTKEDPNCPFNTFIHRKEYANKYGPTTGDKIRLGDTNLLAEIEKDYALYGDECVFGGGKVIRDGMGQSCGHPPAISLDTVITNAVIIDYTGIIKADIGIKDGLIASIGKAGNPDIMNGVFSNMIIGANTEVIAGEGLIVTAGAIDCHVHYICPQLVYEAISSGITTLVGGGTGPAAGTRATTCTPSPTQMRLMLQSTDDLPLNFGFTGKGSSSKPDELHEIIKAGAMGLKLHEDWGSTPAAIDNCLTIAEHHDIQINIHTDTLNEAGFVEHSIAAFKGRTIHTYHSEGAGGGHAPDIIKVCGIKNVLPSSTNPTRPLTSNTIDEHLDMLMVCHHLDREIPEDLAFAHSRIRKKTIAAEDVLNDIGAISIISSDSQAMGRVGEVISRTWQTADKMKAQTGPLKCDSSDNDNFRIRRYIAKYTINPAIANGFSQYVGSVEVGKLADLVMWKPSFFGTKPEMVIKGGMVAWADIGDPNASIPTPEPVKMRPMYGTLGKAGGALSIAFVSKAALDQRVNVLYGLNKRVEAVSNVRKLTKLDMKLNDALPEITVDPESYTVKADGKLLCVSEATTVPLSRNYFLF
Mode: inhibitor

Structure (SMILES)	assay	conditions	IC50
COc1ccc(OCc2nn3c(-c4cccc(Br)c4)nnc3s2)cc1	enzyme activity	–	28.4 µM
CC(O)c1nc2ccc(Cl)cc2[nH]1 (racemic)	enzyme activity, absorbance	–	38 µM
COC(=O)C1=C(C)NC(=O)CC1c1ccc(Cl)cc1 (centres unmarked)	enzyme activity, absorbance	pH 7.4	84.1 µM
COc1cc(-c2nc3cc(C(=O)N4CCN(c5ccccc5)CC4)ccc3[nH]2)ccc1OCC(=O)NCc1ccccc1	–	pH 7.4	2.99 ± 0.02 µM
O=C(N/N=C/c1cccc(O)c1O)c1ccc(C(=O)N/N=C/c2cccc(O)c2O)cc1	enzyme activity	–	49.2 µM
COC(=O)C1=C(C)NC(=O)CC1c1ccc(OC)cc1 (centres unmarked)	enzyme activity, absorbance	pH 7.4	120 µM
Cc1ccc2[nH]c(C(C)O)nc2c1 (racemic)	enzyme activity, absorbance	–	36 µM
COC(=O)C1=C(C)NC(=O)CC1c1ccc(OC)cc1OC (centres unmarked)	enzyme activity, absorbance	pH 7.4	102 µM
COc1ccc(-c2nnc3sc(COc4ccc(F)cc4)nn23)cc1	enzyme activity	–	6.65 µM
O=C(N/N=C/c1ccc(O)cc1O)c1ccc(C(=O)N/N=C/c2ccc(O)cc2O)cc1	enzyme activity	–	51.5 µM
COC(=O)C1=C(C)NC(=O)CC1c1ccccc1 (centres unmarked)	enzyme activity, absorbance	pH 7.4	131 µM
COc1ccc(-c2nnc3n2N=C(c2ccc(-c4ccccc4)cc2)CS3)cc1	enzyme activity	–	3.51 µM
COc1cc(/C=N/NC(=O)c2ccc(C(=O)N/N=C/c3cc(OC)c(OC)c(OC)c3)cc2)cc(OC)c1OC	enzyme activity	–	74.4 µM
FC(F)(F)c1cccc(NC(=S)N2CCc3ccccc3C2)c1	enzyme activity, absorbance	–	26.5 µM

Repeated from above:
Structure (SMILES)	assay	conditions	IC50
COC(=O)C1=C(C)NC(=O)CC1c1ccc(Cl)cc1 (centres unmarked)	enzyme activity, absorbance	pH 7.4	84.1 µM
